Measured values collected from several papers.
Numbered parts are unrelated; each lists some results of a single study.

Block 1 — technique: aptamer microarray, sandwich; form: DNA with 2'F-ANA; medium: in vitro; concentration: 200 nM; with: Cy3 exosite-II aptamer, 400 nM; direction: higher = stronger binding; oligonucleotide: GGTTGGTGTGGTTGG
Target: Prothrombin, mature alpha-thrombin (F2, Homo sapiens, UniProt P00734)
Setting: whole 15-mer aptamer, many near background
Modification	mean fluorescence intensity [a.u.]
2'F-ANA at 6 7 9 11 12 15	586
2'F-ANA at 3 4 5 7 9 11 12 14 15	56.5
2'F-ANA at 2 3 4 5 6 8 10 11	64.9
2'F-ANA at 1 2 4 5 6 7 10 15	45.5
2'F-ANA at 1 6 7 11 13 14	51.6
2'F-ANA at 4 6 9 11 13	148
2'F-ANA at 1 2 3 4 8 9 11 13 15	127
2'F-ANA at 1 2 3 4 6 7 8 10 12 13 14 15	52

Block 2 — technique: universal PBM; form: double-stranded DNA, one strand shown; medium: in vitro; concentration: 600 nM; direction: higher = stronger binding
Target: Sal-like protein 4, full length isoform A (SALL4, Homo sapiens, UniProt Q9UJQ4, residues 1-1053)
Chain of UniProt Q9UJQ4 (whole entry, looked up): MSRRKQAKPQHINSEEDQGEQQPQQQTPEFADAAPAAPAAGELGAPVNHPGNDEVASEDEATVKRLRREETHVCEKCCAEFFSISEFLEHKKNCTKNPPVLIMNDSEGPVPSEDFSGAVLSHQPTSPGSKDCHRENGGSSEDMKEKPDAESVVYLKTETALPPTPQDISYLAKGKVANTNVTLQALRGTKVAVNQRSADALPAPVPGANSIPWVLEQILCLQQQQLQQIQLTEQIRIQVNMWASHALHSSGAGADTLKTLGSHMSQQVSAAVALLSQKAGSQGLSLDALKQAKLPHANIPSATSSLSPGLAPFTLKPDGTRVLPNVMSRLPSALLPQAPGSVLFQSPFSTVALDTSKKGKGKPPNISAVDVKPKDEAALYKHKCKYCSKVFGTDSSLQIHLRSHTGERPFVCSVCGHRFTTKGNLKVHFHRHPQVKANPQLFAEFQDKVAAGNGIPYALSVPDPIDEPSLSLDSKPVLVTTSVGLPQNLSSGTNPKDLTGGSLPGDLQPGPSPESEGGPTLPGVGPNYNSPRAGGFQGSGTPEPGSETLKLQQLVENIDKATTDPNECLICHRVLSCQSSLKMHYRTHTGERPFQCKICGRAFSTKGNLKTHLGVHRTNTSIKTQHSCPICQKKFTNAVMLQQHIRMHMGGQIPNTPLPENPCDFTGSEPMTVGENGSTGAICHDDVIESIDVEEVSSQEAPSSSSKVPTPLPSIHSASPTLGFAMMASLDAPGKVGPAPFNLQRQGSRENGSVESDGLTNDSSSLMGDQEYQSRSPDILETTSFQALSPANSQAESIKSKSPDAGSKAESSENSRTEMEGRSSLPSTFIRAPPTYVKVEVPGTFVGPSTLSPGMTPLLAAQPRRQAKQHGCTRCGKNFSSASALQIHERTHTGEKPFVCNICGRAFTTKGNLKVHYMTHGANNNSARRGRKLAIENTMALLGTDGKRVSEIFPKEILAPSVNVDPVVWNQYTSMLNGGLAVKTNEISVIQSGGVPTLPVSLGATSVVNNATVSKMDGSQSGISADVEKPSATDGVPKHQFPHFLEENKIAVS
Setting: 8-mer, flanks averaged, mean of replicates
Oligonucleotide	E-score
GCGTGAAC	-0.144
ACGCTCCT	0.0123
TAACTTAA	0.344
GACTGAGA	-0.0239
CTGGCCTC	-0.283
GAGCTTCC	-0.218
CAACCTGG	-0.158

Block 3 — technique: protein binding microarray; form: double-stranded DNA, one strand shown; medium: in vitro; concentration: not given; baseline: not given; direction: higher = stronger binding
Target: Histone acetyltransferase KAT6A, winged helix 1, GST fusion (KAT6A, Homo sapiens, UniProt Q92794, residues 1-85)
Setting: 8-mer, flanks averaged, mean of 2 arrays, mostly near background
Residues (chain): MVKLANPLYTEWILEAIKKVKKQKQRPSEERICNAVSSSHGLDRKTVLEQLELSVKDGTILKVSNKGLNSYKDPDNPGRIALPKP
Oligonucleotide	E-score
ATATTAGA	-0.195
TAGTGATA	-0.0878
CGATTAAG	-0.0118
ACATACTG	-0.0341
ATGAATGA	-0.124
CAGGGCGA	0.0517
CTGGGCAC	-0.0294

Mixed results
Molecule	target	assay	system	conditions	how to read	endpoint	value
PhoQ, residues 284 288 289 292 302 303 SVHLDV	PhoP, residues 12 14 15 18 19 VHSCL (Escherichia coli, UniProt P23836)	Sort-seq, item: YFP reporter	E. coli	PhoQ-PhoP variant library, with: 10 µM Mg2+	baseline: high Mg2+ state, higher = stronger signaling	fold induction	13.7

Repeated from above (block 1):
Modification	mean fluorescence intensity [a.u.]
2'F-ANA at 1 2 3 4 8 9 11 13 15	127
2'F-ANA at 6 7 9 11 12 15	586
2'F-ANA at 2 3 4 5 6 8 10 11	64.9
